Experimental data of several laboratories.
Every numbered part comes from another study and shows a few of its results, in no order. Substitutions count along the parent as printed.
Chain of UniProt Q9Y2X8 (whole entry, looked up): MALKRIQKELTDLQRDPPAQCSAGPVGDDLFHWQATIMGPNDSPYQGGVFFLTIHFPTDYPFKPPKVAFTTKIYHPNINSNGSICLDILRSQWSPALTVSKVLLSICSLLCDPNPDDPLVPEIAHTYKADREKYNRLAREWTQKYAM

Series 1 — target: CCNE2, cyclin fold, Cln2 fusion (human); technique: yeast growth competition, sequencing; medium: yeast; notes: strong parent motif; relative to: not given; reading: higher = stronger binding
Parent: viral docking peptide; YKVKRRLVFGADD; partner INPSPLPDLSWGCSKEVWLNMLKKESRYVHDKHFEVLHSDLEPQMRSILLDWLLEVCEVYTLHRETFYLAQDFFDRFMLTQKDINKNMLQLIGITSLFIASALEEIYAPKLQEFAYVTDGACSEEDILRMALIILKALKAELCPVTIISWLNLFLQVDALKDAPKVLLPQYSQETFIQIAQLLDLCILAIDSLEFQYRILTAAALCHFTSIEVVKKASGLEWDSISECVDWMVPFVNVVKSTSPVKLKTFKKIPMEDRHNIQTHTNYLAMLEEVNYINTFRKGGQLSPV
| Variant | normalised enrichment score |
| --- | --- |
| A11S | 6.08 |
| V8H | 5.41 |
| R5T | 0.593 |
| V3C | 4.58 |
| V8C | 5.07 |
| L7D | 0.214 |
| L7E | 0.565 |
| G10T | 5.27 |
| G10W | 3.28 |
| A11R | 5.63 |
| R6H | 1.28 |
| G10Q | 4.95 |
| F9T | 0.803 |
| G10P | 5.27 |
| R6I | 3.29 |
| F9L | 1.37 |
| R6P | 0.269 |

Series 2 — technique: RNA Bind-n-Seq; molecule type: RNA; medium: in vitro; tested at: 20 nM; notes: 6-mer, flanks averaged, single round; added: 150 mM KCl; relative to: input library; reading: higher = stronger binding
Target: TAR DNA-binding protein 43, full length, His tag (TARDBP, Homo sapiens, UniProt Q13148, residues 1-414)
| Sequence | 6-mer enrichment (R) |
| --- | --- |
| GCAAAC | 0.703 |
| UGAUCC | 0.612 |
| UUCCUA | 0.549 |
| UGUAGC | 0.857 |
| UUGCUU | 0.645 |
| CUUCGG | 0.815 |
| ACAAGC | 0.701 |
| GGCCAA | 1.15 |

Series 3 — observed: peptide-MHC binding; molecule type: peptide; tested at: concentration not given
Target: HLA class I histocompatibility antigen, A alpha chain, allele A*25:01 (Homo sapiens, UniProt P04439)
| Molecule | binding |
| --- | --- |
| MQGKDFNHL | inactive |
| FIVEHINAM | active |
| VALFSSCPVAY | inactive |

Series 4 — technique: universal PBM; molecule type: double-stranded DNA, one strand shown; medium: in vitro; tested at: not given; reading: higher = stronger binding
Target: Sal-like protein 4, full length isoform B (SALL4, Homo sapiens, UniProt Q9UJQ4-2, residues 1-616)
Notes: 8-mer, flanks averaged, mean of replicates
Residues (chain): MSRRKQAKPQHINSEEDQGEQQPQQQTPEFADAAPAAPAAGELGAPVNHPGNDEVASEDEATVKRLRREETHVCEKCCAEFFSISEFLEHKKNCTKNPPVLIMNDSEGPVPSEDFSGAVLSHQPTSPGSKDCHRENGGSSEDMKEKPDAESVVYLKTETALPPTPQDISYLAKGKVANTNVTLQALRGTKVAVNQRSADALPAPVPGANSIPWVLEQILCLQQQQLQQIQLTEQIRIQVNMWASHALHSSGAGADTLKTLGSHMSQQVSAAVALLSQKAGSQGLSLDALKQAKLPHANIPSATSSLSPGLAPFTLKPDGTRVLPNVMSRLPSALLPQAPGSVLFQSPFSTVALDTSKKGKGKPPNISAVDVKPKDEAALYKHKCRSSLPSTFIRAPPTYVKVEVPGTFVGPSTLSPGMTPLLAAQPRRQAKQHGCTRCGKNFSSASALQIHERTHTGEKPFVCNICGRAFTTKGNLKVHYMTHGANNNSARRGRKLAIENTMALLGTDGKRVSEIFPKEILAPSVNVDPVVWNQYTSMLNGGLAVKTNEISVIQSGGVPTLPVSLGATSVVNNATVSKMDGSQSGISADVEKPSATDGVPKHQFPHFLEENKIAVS
| Sequence | E-score |
| --- | --- |
| AACCCTGC | -0.208 |
| GGGACTGA | -0.178 |
| GCCGGGTA | -0.371 |
| CCGAGAAG | -0.246 |
| CATCACTC | -0.127 |
| AGGTAGCC | -0.254 |
| ACAGACTA | 0.022 |
| AACCCCTT | -0.0738 |

Series 5 — technique: two-hybrid; notes: weak activation fusion; relative to: out of 4 tests; reading: higher = firmer interaction
Partner: ARF17 (Arabidopsis thaliana, UniProt Q84WU6)
Chain of UniProt Q84WU6 (whole entry, looked up): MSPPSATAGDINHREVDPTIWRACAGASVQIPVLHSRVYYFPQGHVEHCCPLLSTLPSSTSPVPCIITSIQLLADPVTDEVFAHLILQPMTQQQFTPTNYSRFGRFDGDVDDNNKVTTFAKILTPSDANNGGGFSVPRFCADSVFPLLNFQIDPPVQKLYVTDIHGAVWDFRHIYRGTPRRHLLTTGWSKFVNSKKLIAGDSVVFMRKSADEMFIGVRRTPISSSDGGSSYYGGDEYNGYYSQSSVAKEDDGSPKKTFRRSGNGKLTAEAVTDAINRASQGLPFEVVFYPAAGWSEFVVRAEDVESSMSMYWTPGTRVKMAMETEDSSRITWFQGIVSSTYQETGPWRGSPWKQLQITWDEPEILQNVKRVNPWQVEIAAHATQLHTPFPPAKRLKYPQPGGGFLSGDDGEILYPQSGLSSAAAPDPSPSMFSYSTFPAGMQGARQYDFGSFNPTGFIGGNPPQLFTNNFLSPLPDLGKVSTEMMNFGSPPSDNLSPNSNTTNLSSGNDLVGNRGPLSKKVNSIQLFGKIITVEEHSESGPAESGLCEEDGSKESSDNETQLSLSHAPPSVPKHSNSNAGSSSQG
B1: ARF4 660-788 (Arabidopsis thaliana, UniProt Q9ZTX9); chain QSSSKRICTKVHKQGSQVGRAIDLSRLNGYDDLLMELERLFNMEGLLRDPEKGWRILYTDSENDMMVVGDDPWHDFCNVVWKIHLYTKEEVENANDDNKSCLEQAALMMEASKSSSVSQPDSSPTITRV
B2: ARF12 500-593 (Arabidopsis thaliana, UniProt Q9XID4); chain TEIQNKQFSSSRTCTKVQMQGVTIGRAVDLSVLNGYDQLILELEKLFDIKGQLQTRNQWEIAFTDSDEDKMLVGDDPWPEFCNMVKKIFIQKRR
B3: ARF6 790-935 (Arabidopsis thaliana, UniProt Q9ZTX8); chain SENPQSNTFVKVYKSGSFGRSLDISKFSSYHELRSELARMFGLEGQLEDPVRSGWQLVFVDRENDVLLLGDDPWPEFVSSVWCIKILSPQEVQQMGKRGLELLNSAPSSNNVDKLPSNGNCDDFGNRSDPRNLGNGIASVGGSFNY
| Molecule | positive tests |
| --- | --- |
| B1 (ARF4 660-788) | 0 |
| B2 (ARF12 500-593) | 0 |
| B3 (ARF6 790-935) | 0 |

Further values, each from its own experiment
B4: PRKN RING domain (UniProt O60260); chain LIATNSRNITCITCTDVRSPVLVFQCNSRHVICLDCFHLYCVTRLNDRQFVHDPQLGYSLPCVAGCPNSLIKELHH
| Molecule | target | assay | system | conditions | scale | measurement | value |
| --- | --- | --- | --- | --- | --- | --- | --- |
| B4 (PRKN RING domain) | UBE2D4 UBC core domain (UniProt Q9Y2X8) | yeast two-hybrid | yeast | mostly zero background | relative to: not given, higher = stronger interaction | lacZ reporter activity | 0 |
